Published values of several laboratories.
A part holds a random share of what one study measured.

Block 1 — method: universal PBM; form: double-stranded DNA, one strand shown; sample: in vitro; tested at: 600 nM; direction: higher = stronger binding
Target: Sal-like protein 4, full length isoform A (SALL4, Homo sapiens, UniProt Q9UJQ4, residues 1-1053)
Chain of UniProt Q9UJQ4 (whole entry, looked up): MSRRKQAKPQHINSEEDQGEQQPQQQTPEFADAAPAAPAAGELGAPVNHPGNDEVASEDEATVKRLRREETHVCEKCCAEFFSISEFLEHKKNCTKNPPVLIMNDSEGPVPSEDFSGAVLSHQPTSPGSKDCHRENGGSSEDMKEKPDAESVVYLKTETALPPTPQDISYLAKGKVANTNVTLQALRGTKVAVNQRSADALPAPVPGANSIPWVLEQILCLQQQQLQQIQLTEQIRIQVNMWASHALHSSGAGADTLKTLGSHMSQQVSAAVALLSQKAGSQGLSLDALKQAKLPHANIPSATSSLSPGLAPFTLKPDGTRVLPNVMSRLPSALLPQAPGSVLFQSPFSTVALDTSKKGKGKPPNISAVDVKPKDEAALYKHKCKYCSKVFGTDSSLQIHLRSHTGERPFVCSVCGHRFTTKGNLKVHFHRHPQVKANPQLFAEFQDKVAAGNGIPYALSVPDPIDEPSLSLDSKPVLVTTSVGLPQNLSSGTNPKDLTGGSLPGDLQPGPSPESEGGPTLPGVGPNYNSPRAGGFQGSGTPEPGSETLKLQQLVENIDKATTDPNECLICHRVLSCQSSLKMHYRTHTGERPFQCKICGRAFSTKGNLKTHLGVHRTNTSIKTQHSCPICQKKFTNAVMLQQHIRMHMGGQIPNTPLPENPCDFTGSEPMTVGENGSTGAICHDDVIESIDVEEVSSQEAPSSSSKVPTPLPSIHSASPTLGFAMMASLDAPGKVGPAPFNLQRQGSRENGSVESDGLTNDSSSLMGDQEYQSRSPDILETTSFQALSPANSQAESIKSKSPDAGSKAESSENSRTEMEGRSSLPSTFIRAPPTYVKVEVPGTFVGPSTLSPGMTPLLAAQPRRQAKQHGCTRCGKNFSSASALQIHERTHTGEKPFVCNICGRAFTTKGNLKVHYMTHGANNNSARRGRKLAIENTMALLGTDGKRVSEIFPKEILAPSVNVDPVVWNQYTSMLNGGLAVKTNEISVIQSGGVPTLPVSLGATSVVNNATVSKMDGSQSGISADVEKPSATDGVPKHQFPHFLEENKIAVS
Setting: 8-mer, flanks averaged, mean of replicates
Sequence	E-score
AGTTTTAT	0.286
CTGTTCAC	-0.0508
CTAATCAG	0.0641
CGATACAA	0.17
TGCTTCAA	0.109
ACCTAGGA	0.00341
GTCACAGA	0.0179
CAGGATTC	0.0565
AAATGACA	0.179
AGGGCGAC	-0.292
ATGGGTTA	0.156
AAGTGACT	0.0473
ATTGTGAC	0.0323
GTTGTAGA	0.175
AGCTTTGC	-0.0192
AAAGGTCG	0.0272
AGTTGTCC	0.0549
GATTGGAC	-0.00242
TAAGATTA	0.267
CTACTCAC	-0.0853
ATTACACC	0.041
AAAAGTCG	0.0565
GAAAGCGA	-0.0794

Block 2 — method: RNA Bind-n-Seq; form: RNA; sample: in vitro; tested at: 365 nM; baseline: no-protein control; direction: higher = stronger binding
Target: RNA binding protein fox-1 homolog 2, RRM domain, GST-SBP tag (RBFOX2, Homo sapiens, UniProt O43251-10, residues 100-194)
Setting: natural RNA segment, single round, ends assumed
Construct (chain): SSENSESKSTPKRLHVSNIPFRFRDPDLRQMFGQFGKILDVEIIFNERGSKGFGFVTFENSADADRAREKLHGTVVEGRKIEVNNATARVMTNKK
Sequence	RBNS enrichment (R)
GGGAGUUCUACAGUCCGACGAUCCGCCCCAACCCCAAUUUCUGGAGCUGCAGCCGUCCCGCGCCCCACCCAAGGUGGGCGCCUUCCCCUCUUGUGCCCAGGGCGGUGGGCGUGGUGUCCACCCGCCCCUCCUGUGGAAUUCUCGGGUGCCAA	0.331
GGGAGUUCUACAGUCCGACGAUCUUAGGGAUUGUUUAGAAAACAAAGAAAGAGCCAAUUAAAUUUUUUAGUUUUUGAAAUUUUUAUUUAUAUGUAUACUUAGAUGAGUAUUUUAAGCUGUCGACCUUUAGUUUUGGAAUUCUCGGGUGCCAA	1.64
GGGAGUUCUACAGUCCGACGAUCUUGGGAAUCCACAUUUUUUGGGGGAAUGGAAAAGCUCUGUCUCCCUAACUCAACUGCUUUGCAAGGGGAAAUCAAGCUGGGAGAAUCUUUUUCUGGCCACCUGUGGGGUAUGGAAUUCUCGGGUGCCAA	0.241
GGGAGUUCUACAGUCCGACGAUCAUAUUCAAAUAGAGGCUCACAGCGGCAUAAGCUGGACUUUGUCGCCACUAGAUGACAAGAUGUUAUAACUAAGUUAAACCACAUCUGUGUAUCUCAAGGGACUUAAUUCAUGGAAUUCUCGGGUGCCAA	0.258
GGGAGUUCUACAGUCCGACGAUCGAGCCAUGCUACAGUUAGUCUUGUCCCAAUUAAAAUACUAUGCAGUAUCUCUUACAUCAGUAGCAUUUUUCUAAAACCUUAGUCAUCAGAUAUGCUUACUAAAUCUUCAGUGGAAUUCUCGGGUGCCAA	0.364
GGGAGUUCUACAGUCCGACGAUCUUGUCUGAAUGUAAUACAGUCUUCAUUGUACUAUUCAACCCUUUGUUUCUUUCUUUUUCAUUUUGUGAAAAACUCCAUGUUAGUCCUCUUAGAUGACUGCUUAUUUAUGUUGGAAUUCUCGGGUGCCAA	0.691
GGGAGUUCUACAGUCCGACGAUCAAUUGCUAUUUUUAUAGCUGAUAUAGUUACACCUCAAGCCCCUCAGGGGUAACAACUAACAAACACCCAAACUGUUUGGAUUGAUUGCUUUAAAAAACAAACCUGGCUCUUGGAAUUCUCGGGUGCCAA	0.304
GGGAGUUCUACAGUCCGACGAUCAACCUCUCUCAACCAGUGAAACAUCCCCUAAACCUGUCCAUCCCUGACUCCUGUCCCCAAGGGAGGCAUUGUGGUCCUGUCCCCUUGGUAGAGCUCCUGAGGUACUGUUCUGGAAUUCUCGGGUGCCAA	0.702
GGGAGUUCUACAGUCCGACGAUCACAUUUAUUUUAUGGUUUCUUGUCAAGAUUUAAUCUAAAUAUUUUAAAAGCAAUUCCAAGGAAGCAUACAAGAUUUUCUUUUAAAAUAACAAAUUUAAUAUAAAUCAAAGUGGAAUUCUCGGGUGCCAA	0.688
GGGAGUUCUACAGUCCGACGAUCUUGGGUCUCCUCAGGCCCCCGGGCCCACCUGCCCUGAAGGCAGCAGCAAGUUUCUUCUGCAGCCCUGCCGUGCUUGAGGAAGGGCCUGAGGAGGAAGGGACACUCACUCUUGGAAUUCUCGGGUGCCAA	0.438
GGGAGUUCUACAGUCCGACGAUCUUGGCACGGUGCUGCAUCCUUCUACUGCUCCCUCCAGGUCUGGGGGCUUUUAUCCACCUUGAAUCCCUAUCCUCCUCUUUGUAGUUGUCGGUCUCACUGAUAACAGCUCCUGGAAUUCUCGGGUGCCAA	0.724
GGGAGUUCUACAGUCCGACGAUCUAGUAAGUCCAUGCCUUCAAUAGGAUUAGAGCCAACUUCAGGAUUCUGGAAUGUUAGGAAGAGCAGCUGAGACUUCUAUCCUGAUAGAAUAAAACAACUGCCUGAUUCUAUGGAAUUCUCGGGUGCCAA	0.43

Block 3 — method: protein-binding microarray; form: hairpin DNA; sample: in vitro; tested at: not given; baseline: not given; direction: higher = stronger binding
Target: Krueppel-like factor 3, full length (KLF3, Homo sapiens, UniProt P57682, residues 1-345)
Chain of UniProt P57682 (whole entry, looked up): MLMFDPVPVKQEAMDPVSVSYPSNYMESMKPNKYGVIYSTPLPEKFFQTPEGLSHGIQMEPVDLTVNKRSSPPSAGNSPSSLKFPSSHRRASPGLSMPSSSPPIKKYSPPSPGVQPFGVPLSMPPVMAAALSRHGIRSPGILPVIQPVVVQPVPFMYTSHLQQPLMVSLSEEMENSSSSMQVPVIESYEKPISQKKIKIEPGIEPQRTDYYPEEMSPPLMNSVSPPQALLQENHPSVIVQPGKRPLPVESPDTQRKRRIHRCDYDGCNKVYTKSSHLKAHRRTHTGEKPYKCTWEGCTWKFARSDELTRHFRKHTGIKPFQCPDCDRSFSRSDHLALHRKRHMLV
Setting: whole hairpin DNA, median over replicate spots
Sequence	median fluorescence [a.u.]
GAGGCCGCCCACGCCCAGCCTCCTGGCTGGGCGTGGGCGGCCTCACACTC	9410
GAGGCCGACCGCACCCAGCCTCCTGGCTGGGTGCGGTCGGCCTCACACTC	8830
GAGGCCGAGCACGCCCAGCCTCCTGGCTGGGCGTGCTCGGCCTCACACTC (5mC at 36)	9510
GAGGCCGACCACGCCAAGCCTCCTGGCTTGGCGTGGTCGGCCTCACACTC	8940
GAGGCCGCGCGCGCCCAGCCTCCTGGCTGGGCGCGCGCGGCCTCACACTC (5mC at 36)	12000
GAGGCCGACCGCGCCCGGCCTCCTGGCCGGGCGCGGTCGGCCTCACACTC (5mC at 16 28)	9060
GAGGCCGACCGCGCCAAGCCTCCTGGCTTGGCGCGGTCGGCCTCACACTC	8510
GAGGCCGACCGCGCCCAGCCTCCTGGCTGGGCGCGGTCGGCCTCACACTC (5mC at 10 32)	8760
GAGGCCGACCGCGCCCAGCCTCCTGGCTGGGCGCGGTCGGCCTCACACTC (5mC at 12)	8450
GAGGCCGACCACGCTCAGCCTCCTGGCTGAGCGTGGTCGGCCTCACACTC	9200
GAGGCCAACCGCGCCCAGCCTCCTGGCTGGGCGCGGTTGGCCTCACACTC	8550
GAGGCCGTCCACGCCCAGCCTCCTGGCTGGGCGTGGACGGCCTCACACTC	9010
GAGGCCGACCACGCCCGGCCTCCTGGCCGGGCGTGGTCGGCCTCACACTC	9920
GAGGCCGACCGCCGCCAGCCTCCTGGCTGGCGGCGGTCGGCCTCACACTC (5mC at 31)	8340

Block 4 — method: RNA Bind-n-Seq; form: RNA; sample: in vitro; tested at: 200 nM; setting: whole 134-nt RNA, ends assumed; added: 150 mM KCl; baseline: input library; direction: higher = stronger binding
Target: Fragile X messenger ribonucleoprotein 1, C-terminal low-complexity region (Fmr1, Mus musculus, UniProt P35922)
Sequence	log2 enrichment
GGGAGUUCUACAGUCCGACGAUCUGGCCCUGGUGGCAUGCGGGGAGGAAGAGGUGGCCUCAUGGAUCGUUGUGGUCCCGGUGGAAUGUUCAGAGGUGGCCGUGGUGGAGACAGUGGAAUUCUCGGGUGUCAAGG	0.0576
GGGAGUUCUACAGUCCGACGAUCUGGGAGGUGGAUUUUGUUUAUUUUUUUCGCUCAUUUCCAGGGGUGGGAAUUUUUUUUUAAUAUGUGUCAUGAAUAAAGUUGUUUUUGAAAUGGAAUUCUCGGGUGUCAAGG	0.25
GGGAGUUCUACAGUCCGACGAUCGCAAAAAGUAAAAACAAAUGGAAAUGCUUCGGAUAGUGGCAGGGGUGGGGGUUGCUAAGGAAAGGGUGGGAUGGGAGUGGGUAAAGAGUUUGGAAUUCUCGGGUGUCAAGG	0.534
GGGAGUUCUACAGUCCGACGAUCCCUCAAGUCCUGUGCUACACAUCGUAUGUACCGAAUCGGAGGUUUGGAAAGGAAAGUAUUAUGUUACGCCGUUCGGAUCUGCACUUCCAGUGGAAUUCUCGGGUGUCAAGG	-0.00432
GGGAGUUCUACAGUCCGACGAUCAAGUCCUGUGCUACACAUCGUAUGUACCGAAUCGGGUUUUGGUUUUGGGGUUUUGGAAAGUAUUAUGUUACGCCGUUCGGAUCUGCACUUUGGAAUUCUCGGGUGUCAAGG	-0.605
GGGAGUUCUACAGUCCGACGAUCCCUCAAGUCCUGUGCUACACAUCGUAUGUACCGAAUCGGGUGGGUGGGAGGGAAAGUAUUAUGUUACGCCGUUCGGAUCUGCACUUCCAGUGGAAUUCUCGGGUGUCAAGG	0.879
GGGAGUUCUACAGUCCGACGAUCUUUCAGGGGAGCUCUUUGCUCAGGCCCCGGUGGAUCAGUUUCCUGGCACAGCUGUGGAGAGUGUGACGGAUUCCAGCAGGUACUUCGUGAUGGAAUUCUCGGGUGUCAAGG	-1.32
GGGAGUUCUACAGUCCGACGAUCUAACUUUAGAGGAGGAUCUGAUGGAUAUGGCAGUGGACGUGGAUUUGGGGAUGGCUAUGAUGGGUAUGGAGGAGGACCUGGAGGUGGCAAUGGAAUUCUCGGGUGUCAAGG	0.191
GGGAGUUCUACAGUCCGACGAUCUCCUGUGCUACACAUCGUAUGUACCGAAUCGGGAAAAAGGGUUUUUUUGGGUUUUUGGGAAAGUAUUAUGUUACGCCGUUCGGAUCUGCAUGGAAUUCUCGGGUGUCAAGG	-0.328
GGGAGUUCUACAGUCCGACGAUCUGGCCCUGGUGGCAUGCGGGGAGGAAGAAGUGGCCUCAUGGAUCGUGGUGGUCCCGGUGGAAUGUUCAGAGGUGGCCGUGGUGGAGACAGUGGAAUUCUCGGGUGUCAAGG	0.0888
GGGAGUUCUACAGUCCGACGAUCUAGCUUUAGAGGAGGAUCUGAUGGAUAUGGCAGUGGACGUGGAUUUGGGGAUGGCUAUAAUGGGUAUGGAGGAGGACCUGGAGGUGGCAAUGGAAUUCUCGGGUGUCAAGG	0.277
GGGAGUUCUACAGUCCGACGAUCACCAUGCAGGUGGGCAUCUUUGGGAAGUGGGGCAAGGGGGGGAUAGGGAGGGGGGUAACACUUUGGGAACAGGUGGUCCCGGGUCGUUUCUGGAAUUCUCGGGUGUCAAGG	0.734
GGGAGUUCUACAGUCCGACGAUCCUCAAGUCCUGUGCUACACAUCGUAUGUACCGAAUCGGGGAAGGAAGGGAAGGGAAAGUAUUAUGUUACGCCGUUCGGAUCUGCACUUCCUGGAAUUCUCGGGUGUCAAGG	0.0631
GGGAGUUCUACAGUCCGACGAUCUGAAAAUGCUUUCAUGUUAAUUGUGUACACACAUUUCAUCUGUAUCCCUGUUUCUUUUCUCCCUACAGAAACAUAUGAGGAUUUUGAUACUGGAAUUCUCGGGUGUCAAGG	0.493

Block 5 — method: protein binding microarray; form: double-stranded DNA, one strand shown; sample: in vitro; tested at: not given; baseline: not given; direction: higher = stronger binding
Target: Histone acetyltransferase KAT6A, both winged helices, GST fusion (KAT6A, Homo sapiens, UniProt Q92794, residues 1-181)
Setting: 8-mer, flanks averaged, mean of 2 arrays, mostly near background
Construct (chain): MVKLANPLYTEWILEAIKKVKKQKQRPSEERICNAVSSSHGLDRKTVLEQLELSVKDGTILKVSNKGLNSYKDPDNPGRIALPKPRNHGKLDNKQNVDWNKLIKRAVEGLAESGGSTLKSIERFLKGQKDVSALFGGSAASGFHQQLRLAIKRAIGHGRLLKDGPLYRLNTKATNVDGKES
Sequence	E-score
ATTTCGGA	0.0892
AGGATTGG	-0.161
AGTGCCAG	-0.136
ACTAAGGG	-0.0895
GTGTGAAC	0.0155
GACCCCAA	-0.122
CAGGGTGA	-0.278
TCCAGCGA	-0.116
CCGACTGA	0.0425
CACACTGA	-0.185
GCGACCCC	0.0905
ACATAGGT	-0.158
CGGTTGAA	0.125
ACATACCT	-0.197
GACGATCC	-0.0958
CTCAGGAA	-0.132
AGAGTGAT	-0.223

For quick reference, copied from above (block 3):
Sequence	median fluorescence [a.u.]
GAGGCCGCCCACGCCCAGCCTCCTGGCTGGGCGTGGGCGGCCTCACACTC	9410
GAGGCCGTCCACGCCCAGCCTCCTGGCTGGGCGTGGACGGCCTCACACTC	9010
GAGGCCGACCGCCGCCAGCCTCCTGGCTGGCGGCGGTCGGCCTCACACTC (5mC at 31)	8340
GAGGCCGACCGCGCCCAGCCTCCTGGCTGGGCGCGGTCGGCCTCACACTC (5mC at 12)	8450
GAGGCCGACCACGCCCGGCCTCCTGGCCGGGCGTGGTCGGCCTCACACTC	9920
GAGGCCGACCGCGCCCAGCCTCCTGGCTGGGCGCGGTCGGCCTCACACTC (5mC at 10 32)	8760
GAGGCCGACCGCACCCAGCCTCCTGGCTGGGTGCGGTCGGCCTCACACTC	8830
